Measurements pooled from the literature.
Compare with care: the assays were run in different laboratories. Values joined by “and” are separate records of one study, mostly repeats; a detail may differ. ± gives the spread as reported.
Chain of UniProt Q9UM07 (whole entry, looked up): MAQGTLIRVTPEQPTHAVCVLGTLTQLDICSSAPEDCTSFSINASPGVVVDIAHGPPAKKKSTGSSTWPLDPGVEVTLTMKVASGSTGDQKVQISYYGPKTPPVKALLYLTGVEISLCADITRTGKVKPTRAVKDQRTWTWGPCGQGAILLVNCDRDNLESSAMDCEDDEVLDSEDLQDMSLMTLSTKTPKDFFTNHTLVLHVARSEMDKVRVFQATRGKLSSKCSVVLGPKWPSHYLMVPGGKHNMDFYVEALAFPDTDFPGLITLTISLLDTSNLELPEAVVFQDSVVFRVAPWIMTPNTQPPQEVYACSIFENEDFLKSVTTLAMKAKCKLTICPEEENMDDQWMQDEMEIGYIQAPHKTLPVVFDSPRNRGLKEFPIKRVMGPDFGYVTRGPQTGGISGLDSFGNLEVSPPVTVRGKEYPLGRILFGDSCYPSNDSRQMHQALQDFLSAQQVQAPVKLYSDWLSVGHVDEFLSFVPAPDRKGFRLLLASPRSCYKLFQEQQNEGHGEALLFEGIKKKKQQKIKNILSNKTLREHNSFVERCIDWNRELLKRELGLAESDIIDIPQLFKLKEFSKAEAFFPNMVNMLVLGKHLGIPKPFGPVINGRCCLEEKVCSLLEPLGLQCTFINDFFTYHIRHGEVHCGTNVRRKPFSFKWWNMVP
Chain of UniProt P42681 (whole entry, looked up): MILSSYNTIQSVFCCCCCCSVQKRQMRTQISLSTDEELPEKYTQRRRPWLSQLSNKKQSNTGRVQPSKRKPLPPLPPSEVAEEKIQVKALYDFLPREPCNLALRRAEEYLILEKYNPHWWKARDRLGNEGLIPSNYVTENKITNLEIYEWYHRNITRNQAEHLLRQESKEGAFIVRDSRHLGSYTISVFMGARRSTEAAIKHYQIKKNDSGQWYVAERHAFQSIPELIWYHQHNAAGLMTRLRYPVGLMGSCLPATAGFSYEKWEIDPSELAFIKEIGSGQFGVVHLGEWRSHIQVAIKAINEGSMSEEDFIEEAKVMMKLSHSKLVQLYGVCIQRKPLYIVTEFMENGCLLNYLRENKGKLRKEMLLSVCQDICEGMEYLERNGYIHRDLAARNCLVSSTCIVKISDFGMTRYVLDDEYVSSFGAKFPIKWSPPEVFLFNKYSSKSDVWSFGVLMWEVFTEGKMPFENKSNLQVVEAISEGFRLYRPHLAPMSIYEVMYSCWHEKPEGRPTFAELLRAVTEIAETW
Chain of UniProt P21554 (whole entry, looked up): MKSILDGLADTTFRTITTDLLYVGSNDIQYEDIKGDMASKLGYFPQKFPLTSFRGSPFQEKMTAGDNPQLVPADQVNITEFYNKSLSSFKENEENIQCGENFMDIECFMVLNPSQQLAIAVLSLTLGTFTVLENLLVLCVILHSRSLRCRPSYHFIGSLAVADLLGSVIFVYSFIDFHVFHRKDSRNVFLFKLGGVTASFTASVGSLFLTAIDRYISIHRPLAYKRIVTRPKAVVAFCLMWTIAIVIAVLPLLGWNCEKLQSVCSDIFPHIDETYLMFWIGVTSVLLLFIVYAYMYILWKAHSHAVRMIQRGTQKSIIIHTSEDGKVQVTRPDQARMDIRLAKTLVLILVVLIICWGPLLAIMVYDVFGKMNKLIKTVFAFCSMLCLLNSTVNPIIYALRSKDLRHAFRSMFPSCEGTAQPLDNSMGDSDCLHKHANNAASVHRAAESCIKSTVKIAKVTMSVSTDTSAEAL
Chain of UniProt O43148 (whole entry, looked up): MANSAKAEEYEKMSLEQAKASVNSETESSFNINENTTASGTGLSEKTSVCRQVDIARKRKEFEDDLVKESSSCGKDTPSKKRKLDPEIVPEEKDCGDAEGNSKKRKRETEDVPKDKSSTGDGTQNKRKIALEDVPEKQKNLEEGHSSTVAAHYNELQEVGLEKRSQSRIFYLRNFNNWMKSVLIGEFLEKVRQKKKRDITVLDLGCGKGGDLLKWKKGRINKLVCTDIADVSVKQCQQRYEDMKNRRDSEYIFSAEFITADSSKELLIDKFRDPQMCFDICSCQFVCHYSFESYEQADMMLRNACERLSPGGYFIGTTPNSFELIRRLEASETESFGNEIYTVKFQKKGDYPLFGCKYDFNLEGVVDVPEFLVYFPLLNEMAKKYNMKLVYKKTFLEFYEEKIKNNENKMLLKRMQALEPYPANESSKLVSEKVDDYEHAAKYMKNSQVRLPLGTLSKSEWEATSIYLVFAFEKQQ
Chain of UniProt Q13418 (whole entry, looked up): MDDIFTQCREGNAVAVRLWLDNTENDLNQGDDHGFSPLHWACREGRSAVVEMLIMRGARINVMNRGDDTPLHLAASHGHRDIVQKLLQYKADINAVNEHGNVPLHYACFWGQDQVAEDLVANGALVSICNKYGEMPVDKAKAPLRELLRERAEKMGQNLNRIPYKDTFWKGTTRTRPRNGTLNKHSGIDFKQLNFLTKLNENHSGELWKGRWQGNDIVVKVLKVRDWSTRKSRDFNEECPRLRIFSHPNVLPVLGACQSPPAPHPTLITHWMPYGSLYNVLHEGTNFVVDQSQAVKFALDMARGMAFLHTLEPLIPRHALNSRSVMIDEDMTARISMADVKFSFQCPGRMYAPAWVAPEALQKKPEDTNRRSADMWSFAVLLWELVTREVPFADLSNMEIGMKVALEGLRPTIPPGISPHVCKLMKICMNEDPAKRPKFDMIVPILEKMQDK
Chain of UniProt P27448 (whole entry, looked up): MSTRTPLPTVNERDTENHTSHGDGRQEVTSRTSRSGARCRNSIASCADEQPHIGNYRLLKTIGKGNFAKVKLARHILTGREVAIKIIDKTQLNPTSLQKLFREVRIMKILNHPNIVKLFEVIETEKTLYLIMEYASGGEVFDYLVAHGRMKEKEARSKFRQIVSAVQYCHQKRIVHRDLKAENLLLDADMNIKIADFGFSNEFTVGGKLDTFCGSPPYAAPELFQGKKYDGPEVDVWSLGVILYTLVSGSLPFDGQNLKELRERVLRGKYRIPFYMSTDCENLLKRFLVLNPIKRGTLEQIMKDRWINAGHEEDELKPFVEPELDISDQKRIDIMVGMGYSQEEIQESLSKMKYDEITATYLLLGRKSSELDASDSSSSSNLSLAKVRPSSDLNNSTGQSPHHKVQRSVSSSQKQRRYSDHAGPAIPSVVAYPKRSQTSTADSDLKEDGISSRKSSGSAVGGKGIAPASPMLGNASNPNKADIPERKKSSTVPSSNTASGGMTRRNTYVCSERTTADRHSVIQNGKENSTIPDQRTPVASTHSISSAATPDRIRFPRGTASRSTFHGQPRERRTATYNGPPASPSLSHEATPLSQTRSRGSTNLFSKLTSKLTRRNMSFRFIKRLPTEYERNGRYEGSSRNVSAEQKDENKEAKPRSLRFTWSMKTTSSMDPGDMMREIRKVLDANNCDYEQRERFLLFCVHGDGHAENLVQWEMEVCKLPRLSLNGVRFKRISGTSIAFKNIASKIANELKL
Chain of UniProt P42574 (whole entry, looked up): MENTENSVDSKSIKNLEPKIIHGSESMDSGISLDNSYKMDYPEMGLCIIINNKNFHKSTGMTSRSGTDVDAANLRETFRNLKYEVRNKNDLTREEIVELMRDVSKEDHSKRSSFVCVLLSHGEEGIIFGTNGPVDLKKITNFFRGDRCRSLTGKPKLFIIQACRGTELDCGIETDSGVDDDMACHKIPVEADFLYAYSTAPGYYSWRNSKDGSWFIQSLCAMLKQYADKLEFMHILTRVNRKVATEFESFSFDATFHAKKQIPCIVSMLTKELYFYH
Chain of UniProt P54753 (whole entry, looked up): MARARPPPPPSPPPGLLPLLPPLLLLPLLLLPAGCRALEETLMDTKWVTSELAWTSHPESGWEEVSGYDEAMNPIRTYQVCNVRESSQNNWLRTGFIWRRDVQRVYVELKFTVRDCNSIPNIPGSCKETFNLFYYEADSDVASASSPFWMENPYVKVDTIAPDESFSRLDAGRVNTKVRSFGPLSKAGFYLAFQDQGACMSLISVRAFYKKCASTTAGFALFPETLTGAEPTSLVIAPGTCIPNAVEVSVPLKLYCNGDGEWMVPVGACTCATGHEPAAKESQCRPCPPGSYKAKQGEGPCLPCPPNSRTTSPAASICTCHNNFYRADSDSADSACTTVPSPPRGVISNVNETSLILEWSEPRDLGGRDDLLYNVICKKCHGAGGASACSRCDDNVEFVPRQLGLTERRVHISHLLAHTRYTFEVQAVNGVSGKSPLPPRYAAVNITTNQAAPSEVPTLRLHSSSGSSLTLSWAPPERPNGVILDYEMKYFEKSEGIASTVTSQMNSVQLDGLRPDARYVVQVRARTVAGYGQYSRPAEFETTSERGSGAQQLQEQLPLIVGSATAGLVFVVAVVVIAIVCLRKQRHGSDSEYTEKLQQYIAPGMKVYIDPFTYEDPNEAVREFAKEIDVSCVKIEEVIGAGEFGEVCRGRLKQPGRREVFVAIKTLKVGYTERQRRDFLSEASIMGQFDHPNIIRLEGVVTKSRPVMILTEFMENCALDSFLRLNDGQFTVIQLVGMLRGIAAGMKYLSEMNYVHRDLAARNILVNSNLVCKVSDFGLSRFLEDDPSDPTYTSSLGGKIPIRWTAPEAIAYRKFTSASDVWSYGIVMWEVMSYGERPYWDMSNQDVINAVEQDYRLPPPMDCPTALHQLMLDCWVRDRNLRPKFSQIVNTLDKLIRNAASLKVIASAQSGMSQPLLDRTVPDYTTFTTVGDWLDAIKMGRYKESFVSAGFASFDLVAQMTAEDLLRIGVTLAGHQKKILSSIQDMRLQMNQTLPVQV
Chain of UniProt P28564 (whole entry, looked up): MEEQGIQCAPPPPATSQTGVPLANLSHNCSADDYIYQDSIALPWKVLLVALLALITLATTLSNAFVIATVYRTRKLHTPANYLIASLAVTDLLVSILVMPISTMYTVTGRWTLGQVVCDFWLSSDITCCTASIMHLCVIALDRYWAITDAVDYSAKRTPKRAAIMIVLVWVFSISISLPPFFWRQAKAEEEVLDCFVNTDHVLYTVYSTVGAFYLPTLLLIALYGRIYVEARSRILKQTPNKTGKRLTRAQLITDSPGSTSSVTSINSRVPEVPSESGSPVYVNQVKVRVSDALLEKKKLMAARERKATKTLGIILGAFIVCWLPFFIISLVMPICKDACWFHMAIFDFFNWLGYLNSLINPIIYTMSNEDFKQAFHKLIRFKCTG

SMILES	target	assay	setting	how to read	measurement	value
CCOCC1C(c2ccc(Cl)c(Cl)c2)CC2CCC1N2C (centres unmarked)	Sodium-dependent dopamine transporter (SLC6A3, Homo sapiens, UniProt Q01959, F326A)	dopamine uptake	0.004 µM, 0.03333 h, F326A mutant, together with: [3H]dopamine	baseline: no inhibitor	remaining activity	12.7%
O=C(NC1CCN(c2ncnc3[nH]cnc23)CC1)c1cccc(NS(=O)(=O)c2ccc(C(F)(F)F)cc2)c1	mRNA cap guanine-N(7) methyltransferase (RNMT, Homo sapiens, UniProt O43148)	enzyme activity, inhibitor	0.1953 µM	–	inhibition	7.15%
CS(C)(=O)=Nc1ccc(-c2ccc(-c3nc4cc(O[C@@H]5CO[C@H]6[C@@H]5OC[C@H]6O)[nH]c4cc3F)cc2)cc1	Ephrin type-B receptor 3 (EPHB3, Homo sapiens, UniProt P54753)	enzyme activity, inhibitor	10 µM	–	inhibition	13%
O=C1NC(=O)c2c1c1cc(F)c[n+]3c1c1c2c2cc(O)ccc2[n]1[Ru-4]312([N]=C=S)[S+]3CC[S+]1CC[S+]2CC3 (centres unmarked)	Tyrosine-protein kinase TXK (TXK, Homo sapiens, UniProt P42681)	enzyme activity	100 nM, human enzyme, together with: 10 µM ATP	baseline: untreated	remaining activity	106%
Cc1ccc2c(C(C[N+](=O)[O-])c3cccs3)c(-c3ccccc3)[nH]c2c1 (centres unmarked)	Cannabinoid receptor 1, with Gi1 (CNR1, Homo sapiens, UniProt P21554)	Gi1 dissociation, agonist, BRET	–	–	Emax	100 ± 9.13%
N[C@H](C(=O)N1CCCC1)C1CCN(c2nccc3c(-c4ncc(Cl)cc4Cl)cccc23)CC1	Protein-arginine deiminase type-4 (PADI4, Homo sapiens, UniProt Q9UM07)	enzyme activity	0.006291 µM, together with: Ca2+ 0.25 mM	–	kcat	0.845 s⁻¹ and 0.837 s⁻¹
CC(C)[C@H]1NC(=O)C[C@H]2/C=C/CCSSC[C@@H](NC1=O)C(=O)N[C@H](Cc1cccc3ccccc13)C(=O)NCC(=O)O2	Proto-oncogene tyrosine-protein kinase Src (SRC, Homo sapiens, UniProt P12931)	enzyme activity, inhibitor	10 µM	–	inhibition	3.4%
CC(C)CC(C(=O)N1CC2(CC1C#N)C(=O)Nc1ccccc12)N(C)C(=O)c1cc2c(F)cc(F)c(F)c2[nH]1 (centres unmarked)	Caspase-3 (CASP3, Homo sapiens, UniProt P42574)	–	–	–	Hill slope	-2.02
CN(C)[C@H]1C[C@@]23CC[C@@]4(O2)C(=CC[C@]2(C)[C@@H](c5ccc6ccncc6c5)CC[C@H]24)C=C3[C@@H](O)[C@@H]1O	Scaffold protein ILK (ILK, Homo sapiens, UniProt Q13418)	ATP probe labelling, inhibitor, KiNativ profiling	1 µM	–	inhibition	7.6%
Nc1ccc(/C=C/C(=O)N2CCc3c(oc4c(-c5ccc(F)cc5)cc(-c5ccc(C(=O)N6CCC(F)(F)CC6)cn5)cc34)C2)cn1	MAP/microtubule affinity-regulating kinase 3 (MARK3, Homo sapiens, UniProt P27448)	binding, competition with immobilised ligand	1 µM	–	remaining binding	99%
Cc1sc2c(c1C)C(c1ccc(Cl)cc1)=NC(CC(=O)OC(C)(C)C)c1nnc(C)n1-2 (centres unmarked)	5-hydroxytryptamine receptor 1B (Htr1b, Rattus norvegicus, UniProt P28564)	ligand displacement, radioligand	1 µM	–	remaining binding	104%

For quick reference, copied from above:
SMILES	target	assay	setting	how to read	measurement	value
CN(C)[C@H]1C[C@@]23CC[C@@]4(O2)C(=CC[C@]2(C)[C@@H](c5ccc6ccncc6c5)CC[C@H]24)C=C3[C@@H](O)[C@@H]1O	Scaffold protein ILK (ILK, Homo sapiens, UniProt Q13418)	ATP probe labelling, inhibitor, KiNativ profiling	1 µM	–	inhibition	7.6%
Nc1ccc(/C=C/C(=O)N2CCc3c(oc4c(-c5ccc(F)cc5)cc(-c5ccc(C(=O)N6CCC(F)(F)CC6)cn5)cc34)C2)cn1	MAP/microtubule affinity-regulating kinase 3 (MARK3, Homo sapiens, UniProt P27448)	binding, competition with immobilised ligand	1 µM	–	remaining binding	99%
